Measurements of several laboratories.
Compare with care: the assays were run in different laboratories. Numbers after ± are the reported error.
Organism: Escherichia coli

SMILES	test	test system	setting	scale	MIC
Cc1ccc(SCC2OC(OC3C(N)CC(N)C(OC4OC(CN)C(O)CC4N)C3O)C(O)C(N)C2O)cc1 (stereo not shown)	–	BL21(DE3) pET22b	–	–	37.5 µg/mL
CC[C@H](C)[C@H](NC(=O)[C@@H](CCCNC(=N)N)NC(=O)[C@H](CCCNC(=N)N)NC(=O)[C@@H]1CCCN1C(=O)[C@H](Cc1c[nH]c2ccccc12)NC(=O)[C@H](CCCNC(=N)N)NC(=O)[C@@H]1CCCN1C(=O)[C@H](CCCNC(=N)N)NC(=O)[C@@H]1CCCN1C(=O)[C@H](CC(C)C)NC(=O)[C@H](Cc1ccc(O)cc1)NC(=O)[C@@H]1CCCN1C(=O)[C@@H]1CCCN1C(=O)[C@H](CCCCN)NC(=O)[C@H](CC(=O)O)NC(=O)[C@@H](N)C(C)C)C(=O)N[C@@H](Cc1ccc(O)cc1)C(=O)N[C@@H](CC(N)=O)C(=O)N[C@H](CCCNC(=N)N)C(N)=O	broth microdilution	BW25113	18 h	–	4 µg/mL
CC[C@H](C)[C@H](N)C1=N[C@H](C(=O)N[C@@H](Cc2ccccc2)C(=O)N[C@H](CCC(=O)O)C(=O)N[C@H](C(=O)N[C@H]2CCCCNC(=O)[C@H](CC(N)=O)NC(=O)[C@@H](CC(=O)O)NC(=O)[C@H](Cc3c[nH]cn3)NC(=O)[C@@H](Cc3ccccc3)NC(=O)[C@H]([C@@H](C)CC)NC(=O)[C@@H](CCCN)NC2=O)[C@@H](C)CC)CS1	broth microdilution	ATCC 25922, LB medium	18 h, 37 °C, with: ZnSO4 0.3 mM	–	> 64 µg/mL
Cc1c2oc3c(C)ccc(C(=O)N[C@@H]4C(=O)N[C@H](C(C)C)C(=O)N5[C@H](C(=O)N(C)CC(=O)N(C)[C@@H](C(C)C)C(=O)O[C@@H]4C)[C@@H](O)C[C@@H]5C)c3nc-2c(C(=O)N[C@@H]2C(=O)N[C@H](C(C)C)C(=O)N3CC(=O)C[C@H]3C(=O)N(C)CC(=O)N(C)[C@@H](C)C(=O)O[C@@H]2C)c(N)c1=O	broth microdilution	ATCC 12435	16 to 48 h	–	> 9.45 µg/mL
CC[C@H](C)[C@H](NC(=O)[C@@H](Cc1ccccc1)NC)C(=O)N[C@@H](CO)C(=O)N[C@H](CCCNC(=N)N)C(=O)N[C@@H](C(=O)N[C@H](C(=O)OC[C@H](N)C(=O)N[C@H]1C(=O)N[C@@H](C)C(=O)N[C@@H](CC(C)C)C(=O)N[C@@H]([C@@H](C)CC)C(=O)O[C@H]1C)[C@@H](C)CC)[C@@H](C)CC	broth microdilution	ATCC 10798, Mueller-Hinton broth	16 h, 37 °C	–	> 8 µg/mL
CC(C)C[C@H](NC(=O)[C@H](CC(C)C)NC(=O)[C@H](CCCNC(=N)N)NC(=O)[C@H](CCCNC(=N)N)NC(=O)[C@H](CC(C)C)NC(=O)[C@H](CC(C)C)NC(=O)[C@H](CCCNC(=N)N)NC(=O)CCCCCNC(=O)/C=C/c1ccc(O)c(O)c1)C(=O)N[C@@H](CCCNC(=N)N)C(N)=O	broth microdilution	ATCC 25922	24 h, 37 °C	–	37 µM
CCCCCCCCCCCCCCCCCCCCCCSCC1OC(OC2C(N)CC(N)C(OC3OC(CN)C(O)CC3N)C2O)C(O)C(N)C1O (stereo not shown)	–	BL21(DE3) AAC(3)-IV	–	–	> 150 µg/mL
O=C(NCCNCCO)c1cn(Cc2ccccc2)c2cc(Cl)c(OCc3ccc(Cl)cc3)cc2c1=O	–	ATCC 25922	–	≥80% growth inhibition	< 0.25 µg/mL
Cc1ccc2nc(C(F)(F)F)c(C(=O)NCc3cccc(Cl)c3)n2c1	broth microdilution	3	–	–	> 64 µM
CCO[C@H]1[C@H](O)[C@@H](N)[C@@H](O[C@H]2[C@H](O[C@@H]3O[C@H](CO)[C@@H](O[C@H]4O[C@@H](CN)[C@@H](O)[C@H](O)[C@H]4N)[C@H]3O)[C@@H](O)[C@H](N)C[C@@H]2N)O[C@@H]1CO	broth microdilution	clinical isolate AG 002	–	–	32 µg/mL
CCCCCCCCCCCC[S+]([O-])CC1OC(OC2C(N)CC(N)C(OC3OC(CN)C(O)CC3N)C2O)C(O)C(N)C1O (mixture of isomers)	–	BL21(DE3) pET22b	–	–	> 150 µg/mL
Cc1cc(N)c2cc(NC(=O)c3ccc4c(-c5ccccc5O)cccc4c3)ccc2n1	–	hyperporinated ΔtolC	–	–	12.5 µM
CCOC(=O)c1cnc(N2CC[C@@H](NC(=O)c3[nH]c(C)c(Cl)c3Cl)[C@@H](OC)C2)o1	–	ATCC 25922	–	–	> 128 µg/mL
OB(O)c1cnn(-c2cc(Cl)ncn2)c1	bacterial growth	CTX-M-14 ESBL clinical isolate	cefotaxime alone	–	32 µg/mL
COc1c(NC(=O)c2ccc(NC(=O)c3ccc(NC(=O)[C@H](CC#N)NC(=O)c4ccc(NC(=O)/C(C)=C/c5ccc(O)cc5)cc4)cc3)c(OC)c2O)ccc(C(=O)O)c1O	–	WT-3	–	–	0.06 µg/mL
CC(C)C[C@@H]1NC(=O)[C@@H](CC(C)C)NC(=O)[C@H](CCN)NC(=O)[C@@H](NC(=O)[C@H](CCN)NC(=O)[C@@H](N)[C@@H](C)O)CCNC(=O)[C@H]([C@@H](C)O)NC(=O)[C@H](CCN)NC(=O)[C@H](CCN)NC1=O	broth microdilution	mcr-1, colistin-resistant, CAMHB with 0.002% polysorbate-80	16 h, 37 °C	–	> 64 µg/mL
CC[C@H](C)[C@H](NC(=O)[C@H](CCCCN)NC(=O)[C@H](CCCNC(=N)N)NC(=O)[C@@H](NC(=O)[C@H](CC(C)C)NC(=O)[C@H](CCCCN)NC(=O)[C@H](CC(C)C)NC(=O)[C@@H](NC(=O)[C@H](CCCCN)NC(=O)CNC(=O)[C@H](Cc1ccccc1)NC(=O)[C@@H](N)Cc1ccccc1)C(C)C)[C@@H](C)CC)C(=O)N[C@@H](Cc1ccccc1)C(N)=O	broth microdilution	K12	–	–	> 100 µM
CC[C@@H](C)[C@@H](NC(=O)[C@@H](C)NC(=O)[C@H](NC(=O)[C@@H](CC(=O)O)NC(=O)[C@@H](CCCCN)NC(=O)[C@@H](CO)NC(=O)[C@H](NC(=O)[C@@H](CC(N)=O)NC(=O)[C@@H](C)NC(=O)[C@H](NC(=O)[C@@H](CCC(=O)O)NC(=O)[C@@H](CCCCN)NC(=O)[C@H](NC(=O)[C@H](NC(=O)[C@@H](Cc1c[nH]cn1)NC(=O)[C@@H](CCCCN)NC(=O)[C@H](NC(=O)[C@@H](CCCCN)NC(=O)[C@@H](CCCCN)NC(=O)[C@H](NC(=O)[C@@H](CC(C)C)NC(=O)[C@@H](CCCCN)NC(=O)[C@@H](CC(N)=O)NC(=O)[C@@H](Cc1ccccc1)NC(=O)[C@@H](CCCNC(=N)N)NC(=O)[C@@H](CCCCN)NC(=O)[C@@H](CCCNC(=N)N)NC(=O)[C@@H](Cc1ccccc1)NC(=O)CN)C(C)C)C(C)C)[C@H](C)O)[C@H](C)CC)[C@H](C)O)C(C)C)C(C)C)C(=O)N[C@@H](C(=O)N[C@H](C)C(=O)NCC(=O)N[C@H](CO)C(=O)NCC(=O)N[C@@H](C(=O)N[C@H](C)C(=O)N[C@@H](C(=O)NCC(=O)N[C@H](C)C(=O)N[C@H](C)C(=O)N[C@H](CCSC)C(N)=O)C(C)C)C(C)C)C(C)C	–	isolate RKI 6 A-6, CAMHB	–	–	16 µg/mL
CCCCCCCCCCCCCCCC(=O)N[C@@H](CCCCN)C(=O)N[C@@H](CCCCN)C(=O)N[C@@H](CCCCN)C(=O)N[C@@H](CCCCN)C(=O)N[C@@H](Cc1c[nH]cn1)C(N)=O	broth microdilution	K12, water pH 7	18 h, 37 °C	–	16 µg/mL
CC(C)C[C@H](NC(=O)[C@H](Cc1ccc(O)cc1)NC(=O)[C@@H]1CCCN1C(=O)[C@H](CCCNC(=N)N)NC(=O)[C@@H]1CCCN1C(=O)[C@H](CCCCN)NC(=O)[C@H](CC(=O)O)NC(=O)[C@@H]1CCCN1C(=O)[C@H](CCCNC(=N)N)NC(=O)C1(N)CCCCC1)C(=O)N1CCC[C@H]1C(=O)N[C@@H](CCCNC(=N)N)C(=O)N1CCC[C@H]1C(=O)N[C@@H](CCCNC(=N)N)C(=O)N1CCC[C@H]1C(=O)N1CCC[C@H]1C(=O)N[C@@H](CCCNC(=N)N)C(=O)N1CCC[C@H]1C(=O)N[C@H](C(=O)N[C@@H](CCCNC(=N)N)C(=O)N[C@@H](CSCc1cccc(CSC[C@H](NC(=O)[C@H](CCCNC(=N)N)NC(=O)[C@@H](NC(=O)[C@@H]2CCCN2C(=O)[C@H](CCCNC(=N)N)NC(=O)[C@@H]2CCCN2C(=O)[C@@H]2CCCN2C(=O)[C@H](CCCNC(=N)N)NC(=O)[C@@H]2CCCN2C(=O)[C@H](CCCNC(=N)N)NC(=O)[C@@H]2CCCN2C(=O)[C@H](CC(C)C)NC(=O)[C@H](Cc2ccc(O)cc2)NC(=O)[C@@H]2CCCN2C(=O)[C@H](CCCNC(=N)N)NC(=O)[C@@H]2CCCN2C(=O)[C@H](CCCCN)NC(=O)[C@H](CC(=O)O)NC(=O)[C@@H]2CCCN2C(=O)[C@H](CCCNC(=N)N)NC(=O)C2(N)CCCCC2)C(C)C)C(=O)NN)c1)C(=O)NN)C(C)C	bacterial growth	ATCC 25922, 100% Mueller-Hinton broth	90 min, 37 °C, strain ATCC 25922	–	8.1 ± 0.6 µg/mL
CC(C)[C@H](NC(=O)[C@H]1NC(=O)[C@H](CO)NC(=O)[C@H](CC(N)=O)NC(=O)[C@@H](N)Cc2c[nH]c3cc(ccc23)C1C(N)=O)C(=O)N[C@H]1Cc2cn(cn2)C(c2ccc(O)cc2)[C@@H](C(=O)N[C@@H](CCCNC(=N)N)C(=O)N[C@@H](Cc2ccccc2)C(=O)O)NC(=O)[C@H](CO)NC1=O (stereo partly shown)	–	ATCC 25922	–	–	8 µg/mL
C[C@@](O)(C(F)F)[C@H](NC(=O)c1ccc(C#CC#CC2CC2)cc1)C(=O)NO	broth microdilution	W3110, CAMHB	–	–	0.014 µg/mL
CC1C(=NOCc2cc(-c3ccc(Cl)cc3)no2)C(C)C(c2ccc(Cl)cc2)OC1c1ccc(Cl)cc1 (stereo not shown)	microbial growth, broth dilution	MTCC443	24 h	–	25 µg/mL
CCCCCCCCCCCCCCCC(=O)N[C@@H](CCCCN)C(=O)N[C@@H](CCCCN)C(=O)N(CCCCN)CC(=O)N[C@@H](CCCCN)C(=O)N[C@@H](CCCCN)C(N)=O	broth microdilution	K12, water pH 7	18 h, 37 °C	–	16 µg/mL
CC(C)C[C@@H]1NC(=O)[C@H](C)NC(=O)[C@H](NC(=O)[C@H](CO)NC(=O)[C@@H](CCCCN)NC(=O)[C@@H](C)NC(=O)[C@@H](N)Cc2ccccc2)[C@H](C(N)=O)OC(=O)[C@H](CC(C)C)NC1=O	–	ATCC 10798	TFA salt	–	> 32 µg/mL

Excerpt of the above:
SMILES	test	test system	setting	scale	MIC
CC(C)C[C@H](NC(=O)[C@H](Cc1ccc(O)cc1)NC(=O)[C@@H]1CCCN1C(=O)[C@H](CCCNC(=N)N)NC(=O)[C@@H]1CCCN1C(=O)[C@H](CCCCN)NC(=O)[C@H](CC(=O)O)NC(=O)[C@@H]1CCCN1C(=O)[C@H](CCCNC(=N)N)NC(=O)C1(N)CCCCC1)C(=O)N1CCC[C@H]1C(=O)N[C@@H](CCCNC(=N)N)C(=O)N1CCC[C@H]1C(=O)N[C@@H](CCCNC(=N)N)C(=O)N1CCC[C@H]1C(=O)N1CCC[C@H]1C(=O)N[C@@H](CCCNC(=N)N)C(=O)N1CCC[C@H]1C(=O)N[C@H](C(=O)N[C@@H](CCCNC(=N)N)C(=O)N[C@@H](CSCc1cccc(CSC[C@H](NC(=O)[C@H](CCCNC(=N)N)NC(=O)[C@@H](NC(=O)[C@@H]2CCCN2C(=O)[C@H](CCCNC(=N)N)NC(=O)[C@@H]2CCCN2C(=O)[C@@H]2CCCN2C(=O)[C@H](CCCNC(=N)N)NC(=O)[C@@H]2CCCN2C(=O)[C@H](CCCNC(=N)N)NC(=O)[C@@H]2CCCN2C(=O)[C@H](CC(C)C)NC(=O)[C@H](Cc2ccc(O)cc2)NC(=O)[C@@H]2CCCN2C(=O)[C@H](CCCNC(=N)N)NC(=O)[C@@H]2CCCN2C(=O)[C@H](CCCCN)NC(=O)[C@H](CC(=O)O)NC(=O)[C@@H]2CCCN2C(=O)[C@H](CCCNC(=N)N)NC(=O)C2(N)CCCCC2)C(C)C)C(=O)NN)c1)C(=O)NN)C(C)C	bacterial growth	ATCC 25922, 100% Mueller-Hinton broth	90 min, 37 °C, strain ATCC 25922	–	8.1 ± 0.6 µg/mL
Cc1cc(N)c2cc(NC(=O)c3ccc4c(-c5ccccc5O)cccc4c3)ccc2n1	–	hyperporinated ΔtolC	–	–	12.5 µM
CC(C)C[C@@H]1NC(=O)[C@H](C)NC(=O)[C@H](NC(=O)[C@H](CO)NC(=O)[C@@H](CCCCN)NC(=O)[C@@H](C)NC(=O)[C@@H](N)Cc2ccccc2)[C@H](C(N)=O)OC(=O)[C@H](CC(C)C)NC1=O	–	ATCC 10798	TFA salt	–	> 32 µg/mL
